Published values from different studies.
A part holds a random share of what one study measured. Several values in a cell are separate wells, animals, samples, runs or records.

Series 1
Organism: Vesicular stomatitis virus
Read-out: pseudovirus infection
Technique: FDA-approved drug library screen
Concentration: concentration not given
Notes: SARS-CoV-2 spike pseudotype
Reference: vehicle
Quantity: GFP-positive cells
NC(=O)CCC(N)C(=O)O (racemic): 149%
C[C@]12CC[C@@H]3c4ccc(O)cc4CC[C@H]3[C@@H]1CC[C@@H]2OC(=O)CCC1CCCC1: 84.8%
CCCCC(O)c1ccccc1 (stereo not drawn): 108%
O=[As]O[As]=O (stereo not drawn): 104%

Series 2
Organism: SARS-CoV-2
Read-out: cytopathic effect
Cell line: Vero E6
Concentration: 10 µM
Quantity: inhibition
CCCOc1ccc(CSc2nnc[nH]2)cc1: -3.7%
CN1CCN2c3ccccc3Cc3ccccc3C2C1 (stereo not drawn): -2.4%
Cc1cc(-c2ccc(/C=C3/SC(Nc4ccc(Cl)c(C(=O)O)c4)=NC3=O)o2)c([N+](=O)[O-])cc1C: -5.1%

Series 3
Target: Replicase polyprotein 1ab, nsp12 with nsp7/nsp8 (rep, Severe acute respiratory syndrome coronavirus 2, UniProt P0DTD1)
Mode: inhibitor
Concentration: 20 µM
Quantity: inhibition
CC[C@H]1[C@@H](O)[C@@H]2[C@H](CC[C@]3(C)[C@@H]([C@H](C)CCC(=O)O)CC[C@@H]23)[C@@]2(C)CC[C@@H](O)C[C@@H]12: 4.18%
CC(C)N[C@@H]1CCn2c(=O)[nH]c3cccc(c32)[C@H]1O: 11.3% and 2.13%
Cn1nccc1Nc1nccc(-c2ccn([C@H](CO)c3ccc(Cl)c(F)c3)c(=O)c2)n1: -5.7% and 12.2%
CCOC(=O)C1=C(N)Oc2ccc(Br)cc2[C@H]1[C@H](C#N)C(=O)OCC: 1.2% and -4.93%
CC(C)C[C@H](NC(=O)OCC1c2ccccc2-c2ccccc21)C(=O)O: -0.38% and 3.03%
NC(=O)c1ccc[n+]([C@@H]2O[C@H](COP(=O)([O-])OP(=O)(O)OC[C@H]3O[C@@H](n4cnc5c(N)ncnc54)[C@H](O)[C@@H]3O)[C@@H](O)[C@H]2O)c1: 0.53% and 11.2%
COc1ccc([C@]2(O)CC[C@@H](N3CC[C@@H](NC(=O)CNC(=O)c4cccc(C(F)(F)F)c4)C3)CC2)cn1: 2.27%
C[C@H](CCC(=O)O)[C@H]1CC[C@H]2[C@@H]3C(=O)C[C@@H]4CC(=O)CC[C@]4(C)[C@H]3CC(=O)[C@]12C: 2.76%
O=C1c2c(O)cccc2Cc2cccc(O)c21: 58%
CCOc1ccc(-n2c([C@@H](C)N(Cc3cccnc3)C(=O)Cc3ccc(OC(F)(F)F)cc3)nc3ncccc3c2=O)cc1: -6.85%
C[C@H]1Oc2cc(cnc2N)-c2c(nn(C)c2C#N)CN(C)C(=O)c2ccc(F)cc21: 4.82% and -2.65%
CCS(=O)(=O)N(C)[C@H]1c2cc(C#N)ccc2OC(C)(C)[C@@H]1O (racemic): 2.96%
COc1cc(N2CCC(N3CCN(C)CC3)CC2)ccc1Nc1ncc(Cl)c(Nc2ccccc2P(C)(C)=O)n1: 4.39% and 1.83%
O=C(c1ccc2nccnc2c1)N1CCCCC1: -0.92% and -5.72%
CO[C@@H]1[C@H](OC(=O)NC(=O)CCl)CC[C@]2(CO2)[C@H]1[C@@]1(C)O[C@@H]1CC=C(C)C: -0.45% and -0.47%

Series 4
Target: Histone acetyltransferase KAT6A, both winged helices, GST fusion (KAT6A, Homo sapiens, UniProt Q92794, residues 1-181)
Technique: protein binding microarray
Form: double-stranded DNA, one strand shown
Medium: in vitro
Concentration: not given
Notes: 8-mer, flanks averaged, mean of 2 arrays, mostly near background
Reference: not given
Direction: higher = stronger binding
Quantity: E-score
Construct (chain): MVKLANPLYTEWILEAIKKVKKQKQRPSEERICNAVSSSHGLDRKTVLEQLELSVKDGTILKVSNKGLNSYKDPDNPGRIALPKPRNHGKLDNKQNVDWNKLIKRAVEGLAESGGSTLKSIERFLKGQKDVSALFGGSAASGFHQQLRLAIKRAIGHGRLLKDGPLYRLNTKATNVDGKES
AACGACCA: -0.196
TATAATAA: 0.0396
CAATTGAC: -0.0721
CAGGAAAC: -0.0857
CTTTGCGA: 0.0182
TACAGAAA: -0.0745
CATGAACC: 0.00709
ATAACATG: 0.0972

Repeated from above (series 4):
CAATTGAC: -0.0721
ATAACATG: 0.0972
CAGGAAAC: -0.0857
TATAATAA: 0.0396
CTTTGCGA: 0.0182
